Experimental data gathered from unrelated publications.
Every numbered part comes from another study and shows a few of its results, in no order. Positions count from the first letter of the parent shown.

Sample 1
Target: CCND3, cyclin fold, Cln2 fusion (human)
Technique: yeast growth competition, sequencing
Sample: yeast
Setting: weak parent motif
Baseline: not given
Direction: higher = stronger binding
Starting sequence: CDC6 docking peptide (human); TLKGRRLVFDNQL
Change | normalised enrichment score
F9N | 0.0918
R5M | 0.147
R6I | 0.112
R5Y | 0.0951
T1Q | 0.0393
L13Q | 0.142
L13C | 0.155
R5A L7A | 0.0394

Sample 2
Target: ABI1, truncated, D143A, DHFR fusion (Arabidopsis thaliana)
Technique: DHFR PCA, deep sequencing
Sample: yeast
Setting: methotrexate growth selection, single substitutions
Added: (+)-ABA 710 µM
Baseline: wild-type fitted maximum
Direction: higher = stronger binding
Starting sequence: PYL1, truncated, DHFR fusion (Arabidopsis thaliana); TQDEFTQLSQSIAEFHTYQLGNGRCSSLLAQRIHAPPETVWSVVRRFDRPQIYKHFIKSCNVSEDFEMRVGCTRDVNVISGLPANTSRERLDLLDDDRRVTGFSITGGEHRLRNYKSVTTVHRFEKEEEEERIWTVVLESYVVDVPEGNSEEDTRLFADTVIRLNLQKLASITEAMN
Change | relative binding score [%]
Q167A | 103
P50F | -0.777
K168F | 77.4
R163T | 95.6
F47V | 6.53

Sample 3
Target: RNA binding protein fox-1 homolog 2, RRM domain, GST-SBP tag (RBFOX2, Homo sapiens, UniProt O43251-10, residues 100-194)
Technique: RNA Bind-n-Seq
Form: RNA
Sample: in vitro
Tested at: 365 nM
Setting: natural RNA segment, single round, ends assumed
Baseline: no-protein control
Direction: higher = stronger binding
Shared flanks, not repeated: GGGAGUUCUACAGUCCGACGAUC … UGGAAUUCUCGGGUGCCAA
Construct (chain): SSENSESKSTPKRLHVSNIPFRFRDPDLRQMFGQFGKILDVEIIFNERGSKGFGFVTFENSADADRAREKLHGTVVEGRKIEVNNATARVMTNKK
Sequence | RBNS enrichment (R)
GAAUUUUAGUCUGUUUUAGAGGUCAGUAAAUAAAAUACAAGCAUCCUGGUUUUGUUGAAGUUUUGGAUUUCUUGUAUAGGUUUCUUUUGUUUCCUUCUCUUUGUUUAGCU | 1.37
GCUUGGGCCGCUUAGGAACAAGAACCGGAGAGAAGUGAUUGGAAAUGAACUCUUGCCCUGGAAUAAUCUUGACAAUUAAAACUGAUAUGUUUACUUUUUUUGUAUUGAUC | 0.295
GGUGGUCCCAUAGGUCUUGUGAAAAGGCUUUUUCAGGGAAAAAUAUUUUACUAGUCCAAUCACCCCCAGGACCUCUUCAGCUGCUGACAAUCCUAUUUAGCAUAUGCAAA | 0.33
ACUGGCGUUGCUUGUGACAGCCCUGGGGCUGAGGCCUGCACCUGGGCCUUGGCAACCAGAUUUCUUUCUUUGGAGUUUGAAAAGCUGUCUCCUGGCCGCAUGGGGUGAGC | 0.843
CAGUCCUCUGGGGUCAGUGUCUCGGGCAGUGGGAUGGAACUGUGUGAUUGCUCUUAGGUGAGUUCCGAGUCUUAAUCUAUGCAUUCAGAGAAAUAUUUUUAUAUGCGUUG | 1.54
ACCCAGCCCCUCAUCCACCUGGAAUUUGAGGAGGAGAAAUGAAAAAACAGUGUGUCACUGGUGUCACACUGGCAUCAUGGCACUGGCGUCAUGGCACUAAGCCACUCAGA | 0.2
CUUAAGGACAGAUGCUGAGAUUGCUUUUUGUAAACUCGUUUAAGCGAGUGAGUGAGUUGAGUUACCUGAACUCUGUAGCACUGGUUGUUCAUAGUGAUGAAGGACAGCAC | 0.88
ACCUGCCCCCUACUGAUGAUGAAGAUUUUUACACCACCUUCUCCUUGGUAACAGAUAAGAGUCUUUCCACUUCAAUCUUCGAAGGUGGCUACAAAGCACAUGCGCCCAAG | 0.655
UAUAAAUGGUGACGAAAUGACAUCCUAAACAGAGUCUUUCUCCUGUAAUUUAGCUGAGAGAAUUCUUUUUCCCAACAGUGAAACAAGUGGGCCUCCUAGAAACUUUAUUG | 0.336
CACUCUAGUGUGAAGUCCUCUUCUAGGGUAUCCUGGUGACUGUGGCUAGCCAAGGGGCCACUUCUUGGUAGGAAGGUAUGACAGAGUACUUUCCCAAGUUCCUCACGAGG | 0.277

Other studies, line by line
Molecule | target | test | system | setting | scale | quantity | value
PhoQ, residues 284 288 289 292 302 303 SSTMSV | PhoP, residues 12 14 15 18 19 LHHVQ (Escherichia coli, UniProt P23836) | Sort-seq, refers to: YFP reporter | E. coli | PhoQ-PhoP variant library, added: 10 µM Mg2+ | baseline: high Mg2+ state, higher = stronger signaling | fold induction | 18.5

Repeated from above (sample 3):
Sequence | RBNS enrichment (R)
CAGUCCUCUGGGGUCAGUGUCUCGGGCAGUGGGAUGGAACUGUGUGAUUGCUCUUAGGUGAGUUCCGAGUCUUAAUCUAUGCAUUCAGAGAAAUAUUUUUAUAUGCGUUG | 1.54
ACCCAGCCCCUCAUCCACCUGGAAUUUGAGGAGGAGAAAUGAAAAAACAGUGUGUCACUGGUGUCACACUGGCAUCAUGGCACUGGCGUCAUGGCACUAAGCCACUCAGA | 0.2
CUUAAGGACAGAUGCUGAGAUUGCUUUUUGUAAACUCGUUUAAGCGAGUGAGUGAGUUGAGUUACCUGAACUCUGUAGCACUGGUUGUUCAUAGUGAUGAAGGACAGCAC | 0.88
